Earlier results, collected from citations in different studies.
Compare with care: the assays were run in different laboratories. Numbers after ± are the reported error.
Sequence of UniProt O35627 (whole entry, unmodified, looked up): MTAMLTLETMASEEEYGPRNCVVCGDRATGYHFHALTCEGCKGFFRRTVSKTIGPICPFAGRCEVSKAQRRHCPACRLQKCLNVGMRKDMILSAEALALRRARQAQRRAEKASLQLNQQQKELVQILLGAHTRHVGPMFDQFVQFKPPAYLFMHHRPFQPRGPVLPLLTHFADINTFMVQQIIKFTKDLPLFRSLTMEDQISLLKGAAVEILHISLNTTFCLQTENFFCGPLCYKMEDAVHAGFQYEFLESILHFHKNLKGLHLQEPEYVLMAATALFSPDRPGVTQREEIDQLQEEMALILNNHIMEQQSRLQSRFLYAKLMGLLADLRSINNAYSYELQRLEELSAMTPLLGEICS

Substance	tested on	test	test system	setting	scale	endpoint	value
PDGF-BB, human recombinant	Schwann cells	–	–	together with: 5 to 10 µM forskolin	–	doubling time	1 to 2 days
C[C@]12CC[C@@H]3c4ccc(O)cc4CC[C@H]3[C@@H]1CC[C@@H]2OC(=O)c1ccccc1	HT-22	cell protection	–	together with: iodoacetic acid 40 µM	–	EC50	8.81 µM
COc1ccc(N(C)c2nc(C)nc3[nH]ccc23)cc1	HeLa	cell growth	–	–	–	IC50	0.27 ± 0.026 µM
CC(=O)c1cccc(N[C@H]2[C@H](N)[C@@](NC(=O)N(C)C)([C@H](C)O)[C@@](C)(O)[C@@]2(O)COC(=O)c2c(C)cccc2O)c1	SNB-19	–	–	–	–	GI50	< 0.1 µM
Cl.c1csc(CNc2cc[nH]n2)c1	human peripheral blood lymphocytes	–	–	2160 µg/mL, 4 + 16 h, range-finding, with or without S9	reference: vehicle	mitotic index reduction	≥ 50%
Nc1nc2c(nc(Sc3ccc(Cl)cc3)n2C2OC3COP(O)(=S)OC3C2O)c(=O)[nH]1 (centres unmarked)	PDE6	cyclic nucleotide hydrolysis, substrate or inhibitor, isothermal titration calorimetry	–	–	–	Km or Ki	26 µM
O=C1c2cccc3c2[C@H](CCC3)CN1[C@@H]1CN2CCC1CC2	–	–	patients, plasma	oral, dose not given, netupitant-palonosetron combination, together with: etoposide 35 to 100 mg/m^2 IV	–	Vz/F	679 L
CC[C@H](C)[C@H](NC(=O)[C@H](CCCCN)NC(=O)[C@H](Cc1c[nH]cn1)NC(=O)[C@@H](N)CCCNC(=N)N)C(=O)N[C@@H](CC(C)C)C(=O)N[C@@H](Cc1c[nH]cn1)C(=O)N[C@@H](CCCNC(=N)N)C(=O)N[C@@H](CC(C)C)C(=O)N[C@@H](CC(C)C)C(=O)N[C@@H](CCC(N)=O)C(=O)N[C@@H](CCC(=O)O)C(=O)NCC(=O)N[C@@H](CO)C(=O)O	Nuclear receptor subfamily 1 group I member 3, with RXR (Mus musculus, UniProt O35627)	binding, isothermal titration calorimetry	–	pH 7.2, 25°C	–	−TΔS	2.8 kcal/mol
Cc1c(O)c(C23CC4CC(CC(C4)C2)C3)cc2c1CC[C@@H]1[C@@H]2CC[C@]2(C)C(=O)CC[C@@H]12	HT-22	cell protection	–	together with: glutamate 10 mM	–	EC50	0.012 µM
Nc1nc2[nH]c(CCCCCCc3ccc(C(=O)N[C@@H](CCC(=O)O)C(=O)O)cc3)cc2c(=O)[nH]1	CHO D4, human FRβ-expressing	cell growth	–	together with: folic acid 200 nM	–	IC50	> 1 µM
Cc1ccc(C(=O)Nc2ccc(CN3CCN(C)CC3)c(C(F)(F)F)c2)cc1C#Cc1cnc2cccnn12	Ba/F3 expressing BCR-ABL	emergence of secondary mutations incl. T315I	–	–	–	concentration suppressing resistance	40 nM
C[N+](C)(C)CC(=O)O	Ehrlich ascites cells	Na+-dependent system A uptake	–	–	–	Km	~40 mM
O=C(Nc1ncnc2c1ncn2[C@@H]1O[C@@H]2COP(=O)(O)OC2C1O)c1ccccc1 (stereo in doubt)	PDE6	cyclic nucleotide hydrolysis, substrate or inhibitor, isothermal titration calorimetry	–	–	–	Km or Ki	64.6 µM
GGVVIA	differentiated PC-12	Aβ42-induced toxicity, inhibitor, MTT	peptide	10-fold excess over Aβ42, 15 h, together with: Aβ42 5 µM	–	viability	73 ± 2%
CC1(C)CC[C@]2(C(=O)O)CC[C@]3(C)C(=CC[C@@H]4[C@@]5(C)CC[C@H](O)C(C)(C)[C@@H]5CC[C@]43C)[C@@H]2C1	neutrophils	superoxide production	–	together with: fMLF	–	IC50	1.4 µM
C[C@]12CC[C@@H]3c4ccc(O)cc4CC[C@H]3[C@@H]1CC1(CCCC1)C2=O	HT-22	cell protection	–	together with: iodoacetic acid 40 µM	–	EC50	8.26 µM
CC(=O)OCC(Cc1ccccc1)NC(=O)C(Cc1ccccc1)NC(=O)c1ccccc1 (centres unmarked)	neutrophils	superoxide production	–	together with: fMLF	–	IC50	~15 µM
C[C@]12CC[C@@H]3c4ccc(O)cc4CC[C@H]3[C@@H]1CC[C@@H]2O	HT-22	cell protection	–	together with: iodoacetic acid 20 µM	–	EC50	2.9 µM
O=c1c2ccccc2[se]n1-c1ccccc1	Kupffer cells	nitric oxide generation	–	–	–	IC50	~3 µM
C[C@]12CC[C@@H]3c4cc(C56CC7CC(CC(C7)C5)C6)c(O)cc4CC[C@H]3[C@@H]1CC[C@@H]2O	HT-22	cell protection	–	together with: glutamate 10 mM	–	EC50	0.023 µM
CC(=O)O[C@H]1Cc2ccccc2N(C(N)=O)c2ccccc21	–	afterdischarge threshold	mouse kindling model	i.p., 200 mg/kg, 15 min before stimulation	–	focal seizure threshold increase	> 289%
VGGVVIA	differentiated PC-12	Aβ42-induced toxicity, inhibitor, MTT	peptide	10-fold excess over Aβ42, 15 h, together with: Aβ42 5 µM	–	viability	80 ± 3%
C[C@]12CC[C@@H]3c4ccc(O)cc4CC[C@H]3[C@@H]1CCC2=O	HT-22	cell protection	–	together with: glutamate 10 mM	–	EC50	3.03 µM
